Results pooled from the literature.
A part holds a random share of what one study measured. Changes are numbered by the printed parent chain.

Study 1 — target: CCND1, cyclin fold, Cln2 fusion (human); method: yeast growth competition, sequencing; medium: yeast; notes: weak parent motif; reference: not given; reading: higher = stronger binding
Parent: E2F1 docking peptide (human); PPVKRRLDLETDH
| Substitution | normalised enrichment score |
| --- | --- |
| P2W | -0.336 |
| P1A | 0.607 |
| R5P | -0.0195 |
| L7W | -0.0217 |
| L7M | -0.118 |
| L7A | 0.146 |
| H13T | 1.1 |
| R5N | 0.321 |
| H13V | 0.512 |
| V3D | 0.7 |
| P2K | 0.427 |
| D8R | 0.215 |
| L7F | -0.293 |
| D12R | 0.177 |
| L7P | -0.218 |
| R6P | 0.0555 |
| L7N | 0.113 |
| R5C | 0.414 |

Study 2 — target: NFIL3, bZIP domain (human); method: DHFR protein complementation; medium: yeast; reference: wild-type JUN-FOS pair; reading: higher = stronger binding
Notes: single substitutions, most at no-binding floor
Parent: JUN, bZIP domain (human); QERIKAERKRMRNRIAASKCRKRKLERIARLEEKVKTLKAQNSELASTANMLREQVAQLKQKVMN; partner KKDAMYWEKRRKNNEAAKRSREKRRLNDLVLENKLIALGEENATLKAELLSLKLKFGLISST
| Substitution | binding fitness |
| --- | --- |
| V56P | -1.51 natural log |
| A46H | -1.52 natural log |
| L38I | -1.53 natural log |
| L45M | -1.5 natural log |
| L31C | -1.51 natural log |
| Q41H | -1.59 natural log |
| K36V | -1.47 natural log |
| Q41K | -1.32 natural log |
| T37N | -1.44 natural log |
| R53P | -1.55 natural log |
| A49D | -1.52 natural log |
| V35C | -1.55 natural log |
| S43W | -1.49 natural log |
| S47Y | -1.5 natural log |
| A57G | -1.5 natural log |
| Q41F | -1.49 natural log |

Study 3 — method: RNA Bind-n-Seq; molecule type: RNA; medium: in vitro; concentration: 200 nM; notes: whole 134-nt RNA, ends assumed; together with: 150 mM KCl; reference: input library; reading: higher = stronger binding
Target: Ras GTPase-activating protein-binding protein 1, full length (G3BP1, Homo sapiens, UniProt Q13283)
Chain of UniProt Q13283 (whole entry, looked up): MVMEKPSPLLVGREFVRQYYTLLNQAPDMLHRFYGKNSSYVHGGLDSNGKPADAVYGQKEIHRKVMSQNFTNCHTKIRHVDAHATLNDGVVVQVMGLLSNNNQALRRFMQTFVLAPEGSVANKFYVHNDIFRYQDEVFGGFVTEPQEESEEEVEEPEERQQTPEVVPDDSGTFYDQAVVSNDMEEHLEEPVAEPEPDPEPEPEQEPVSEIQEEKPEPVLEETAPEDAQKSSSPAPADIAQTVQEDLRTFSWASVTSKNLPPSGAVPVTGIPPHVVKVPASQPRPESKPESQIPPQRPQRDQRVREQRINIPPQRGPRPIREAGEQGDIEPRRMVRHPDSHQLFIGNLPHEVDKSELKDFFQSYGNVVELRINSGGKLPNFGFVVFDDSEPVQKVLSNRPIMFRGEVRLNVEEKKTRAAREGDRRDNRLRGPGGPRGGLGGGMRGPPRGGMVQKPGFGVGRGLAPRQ
| Strand | log2 enrichment |
| --- | --- |
| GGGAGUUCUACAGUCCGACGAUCCACAGACAACACGCACCUACACAGACACAGAGGGAAGGGGUUGGGAUGGGGACAGGGUGCACAGCAGGGCGGGGUAGGACCCCAGCCCCUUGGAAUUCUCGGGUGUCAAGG | 1.79 |
| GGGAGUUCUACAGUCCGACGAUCCUGUGCUACACAUCGUAUGUACCGAAUCGGGCCCCCCCGGGGCCCCCCCGGCCCCCCCGGGAAAGUAUUAUGUUACGCCGUUCGGAUCUGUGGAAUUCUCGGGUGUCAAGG | -0.945 |
| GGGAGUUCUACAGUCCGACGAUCUAACUUUAGAGGAGGAUCUGAUGGAUAUGGCAGUGGACGUGGAUUUGGGGAUGGCUAUAGUGGGUAUGGAGGAGGACCUGGAGGUGGCAAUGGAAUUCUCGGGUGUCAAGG | 0.472 |
| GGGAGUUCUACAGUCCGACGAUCUGGGCGGCUGCGAGAUGAGAACGGACGACCCUACUCGCCCAGUCAGUAUGCGCUCCAGUACGCCGGGGACGGCAGUGUCCUCCUCAUCCCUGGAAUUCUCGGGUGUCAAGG | 0.661 |
| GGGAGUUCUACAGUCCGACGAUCCAAGUCCUGUGCUACACAUCGUAUGUACCGAAUCGGGGAAAGGGGAGGGGAGGGGAAAGUAUUAUGUUACGCCGUUCGGAUCUGCACUUCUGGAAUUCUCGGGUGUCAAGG | 1.43 |
| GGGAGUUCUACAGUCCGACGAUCAGUCCUGUGCUACACAUCGUAUGUACCGAAUCAAAUUUUUAAAUUUUUAAACCCAAAAAAGUAUUAUGUUACGCCGUUCGGAUCUGCACUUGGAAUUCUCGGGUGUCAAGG | -0.434 |
| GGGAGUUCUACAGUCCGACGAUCUCCUCAAGUCCUGUGCUACACAUCGUAUGUACCGAAUCGGCGGGGCGGCGGAAAGUAUUAUGUUACGCCGUUCGGAUCUGCACUUCCAGCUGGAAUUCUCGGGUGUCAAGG | -0.355 |
| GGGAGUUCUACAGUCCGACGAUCCUGUGCUACACAUCGUAUGUACCGAAUCGGGGAAAAAAAGGAAAAAAAGGGGAAAAAAAGGGAAAGUAUUAUGUUACGCCGUUCGGAUCUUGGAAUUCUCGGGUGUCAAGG | -0.654 |
| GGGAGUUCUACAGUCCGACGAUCGUCCUGUGCUACACAUCGUAUGUACCGAAUCGGAAAAAAAGGAAAAAGGUUUUUUUGGAAAGUAUUAUGUUACGCCGUUCGGAUCUGCACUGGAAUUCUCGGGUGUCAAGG | -1.47 |

Study 4 — method: RNA Bind-n-Seq; molecule type: RNA; medium: in vitro; concentration: not given; notes: RNA with constant flanks, ends assumed; reference: input RNA pool; reading: higher = stronger binding
Target: RING finger protein unkempt homolog, zinc fingers 1-6, GST-SBP tag (UNK, Homo sapiens, UniProt Q9C0B0, residues 30-357)
Chain of UniProt Q9C0B0 (30-357, looked up): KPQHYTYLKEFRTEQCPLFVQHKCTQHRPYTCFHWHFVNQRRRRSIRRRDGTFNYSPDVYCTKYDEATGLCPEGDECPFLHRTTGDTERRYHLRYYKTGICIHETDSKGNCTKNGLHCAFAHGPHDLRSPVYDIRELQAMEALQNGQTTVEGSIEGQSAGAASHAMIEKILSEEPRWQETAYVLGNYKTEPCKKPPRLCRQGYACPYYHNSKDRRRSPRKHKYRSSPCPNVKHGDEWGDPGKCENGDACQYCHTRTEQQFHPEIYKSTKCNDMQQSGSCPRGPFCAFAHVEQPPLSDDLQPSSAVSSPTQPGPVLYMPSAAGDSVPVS
| Strand | bound/input enrichment |
| --- | --- |
| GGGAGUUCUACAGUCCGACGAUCAACAAGACAGACUUGCUUGAGGAGAAGGUGCAAAUUGUGAGCAUCAAAGACUAUUUCCCCGAAUUUGAAGGGGAUCCCCACUGCUUAAGAGACGUCCAAAAAUUCCUGGUGGAAUGUUUCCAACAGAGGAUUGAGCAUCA | 0.168 ratio |
| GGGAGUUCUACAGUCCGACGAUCGCCCUCAACUUCUCCGUGUUCUACUAUGAGAUCCAGAAUGCACCUGAGCAAGCCUGCCUCUCCGCCAAACAAGCCUUCGAUGAUGCCAUAGCUGAGCUGGACACACUAAACGAGGAUUCCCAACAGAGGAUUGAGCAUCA | 0.251 ratio |
| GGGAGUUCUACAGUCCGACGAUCGGAUAUUUCACAAAACCUCCGAUUGCAGCUCAUGCUUCAAGAUCUGCAGAAUCUAAGACUACCGAAUUUGGGAAAACUAAUUUUGUUCAGCCCAUGCCGGGUGAAGGAUUAAGGCCAUCUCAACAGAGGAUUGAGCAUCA | 0.107 ratio |
| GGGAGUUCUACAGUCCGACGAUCGACCACAUUGCUGGAGAUGAGGAUCACACAGAUGGAGUAGUAGCUUGUGCUGCUGGACUAACCGGGGACUUAUGUACAGCAUUUGGGAAGGAUGUACUGAAAUUAGUAGAAGCUAGGCCACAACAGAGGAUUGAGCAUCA | 0.86 ratio |
| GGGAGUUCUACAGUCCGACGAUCCCUGGUGCAGGAUUGCUUCCAAUACCGACCCCAAAUCCUUUGACUACUCUUGGUGUUUCACUCCGCAGUUUGGGAGCUAUACCAGCAGCAGCACUAGACCCCAACAUUGCAACACUUGGACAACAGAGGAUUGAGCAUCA | 0.2 ratio |
| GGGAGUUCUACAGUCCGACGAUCCAUAGAAUUUAUACUGCUGAGCUGGCACACAUUUACUUUAGGAAACCUAACUGGAAAUGUCCGGUGAGGAACAGAACUGGAGAAUUCAAAAGUGACAUUUUUGUAGCCAACCUCAGUAUACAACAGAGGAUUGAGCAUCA | 1.76 ratio |
| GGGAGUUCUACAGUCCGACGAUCACGUGAUUUGGAGAGAGGUGUGGAAAUCUGUAUUGCAACACCUGGAAGACUGAUUGACUUUUCCGAGUGUGGAAAAACCAAUCUGAGAAGAACAACCUACCUUGUCCUUGAUGAAGCAGACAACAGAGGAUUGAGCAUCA | 0.131 ratio |
| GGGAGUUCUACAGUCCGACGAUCGAAGACAAGCCAGUGAACGUUAAUGAAGUACCUGACUAUCAAGAAGACAUUCACACGUACCUCCGGGAAAUGGAGGUUAAAUGUAAACCUAAAGUGGGUUACAUGAAGAGGCAGCCAGACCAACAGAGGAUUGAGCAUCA | 0.193 ratio |

Study 5 — method: RNA Bind-n-Seq; molecule type: RNA; medium: in vitro; concentration: 90 pmol; notes: 4-mer, random 30-nt RNA, single round; reference: input library; reading: higher = stronger binding
Target: Eukaryotic initiation factor 4A-I (EIF4A1, Homo sapiens, UniProt P60842, residues 1-406, full length assumed)
Chain of UniProt P60842 (whole entry, looked up): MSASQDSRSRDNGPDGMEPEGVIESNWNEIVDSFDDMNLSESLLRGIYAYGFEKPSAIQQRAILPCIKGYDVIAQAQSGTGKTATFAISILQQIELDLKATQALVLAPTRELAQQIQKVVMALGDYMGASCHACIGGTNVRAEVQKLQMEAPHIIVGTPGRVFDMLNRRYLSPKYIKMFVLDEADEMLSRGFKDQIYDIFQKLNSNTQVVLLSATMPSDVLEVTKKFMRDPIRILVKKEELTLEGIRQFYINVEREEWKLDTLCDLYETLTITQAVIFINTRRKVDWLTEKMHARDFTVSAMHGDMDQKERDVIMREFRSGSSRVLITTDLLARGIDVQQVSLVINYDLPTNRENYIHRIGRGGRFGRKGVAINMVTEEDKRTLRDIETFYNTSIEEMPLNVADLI
Together with: 3 µM iPr-DMDA-PatA, 2 mM ADP, 2 mM phosphate
| Strand | 4-mer enrichment [fold] |
| --- | --- |
| GGGU | 0.673 |
| GGUG | 0.716 |
| AGUU | 1.13 |
| GGAG | 0.841 |
| AAGG | 1.05 |
| UAAU | 1.32 |
| GUUA | 1.07 |
| GAUU | 1.21 |
| UGAU | 1.18 |
| AAUU | 1.37 |
| AGUA | 1.24 |
| AUUG | 1.07 |
| UACU | 1.1 |
| AAAA | 1.78 |
| ACUC | 1.07 |
| ACUU | 1.11 |
| CCGU | 0.812 |
| GGAU | 0.945 |
| UCGG | 0.777 |
| UCAA | 1.22 |

Repeated from above (study 1):
| Substitution | normalised enrichment score |
| --- | --- |
| D8R | 0.215 |
| L7F | -0.293 |
| D12R | 0.177 |
| L7P | -0.218 |
| R6P | 0.0555 |
| L7N | 0.113 |
| R5C | 0.414 |
